Experimental data collected from several papers.
Each numbered part is a random draw from the data of one study; scales do not carry over between parts.
UniProt Q05655, sequence (whole entry, looked up): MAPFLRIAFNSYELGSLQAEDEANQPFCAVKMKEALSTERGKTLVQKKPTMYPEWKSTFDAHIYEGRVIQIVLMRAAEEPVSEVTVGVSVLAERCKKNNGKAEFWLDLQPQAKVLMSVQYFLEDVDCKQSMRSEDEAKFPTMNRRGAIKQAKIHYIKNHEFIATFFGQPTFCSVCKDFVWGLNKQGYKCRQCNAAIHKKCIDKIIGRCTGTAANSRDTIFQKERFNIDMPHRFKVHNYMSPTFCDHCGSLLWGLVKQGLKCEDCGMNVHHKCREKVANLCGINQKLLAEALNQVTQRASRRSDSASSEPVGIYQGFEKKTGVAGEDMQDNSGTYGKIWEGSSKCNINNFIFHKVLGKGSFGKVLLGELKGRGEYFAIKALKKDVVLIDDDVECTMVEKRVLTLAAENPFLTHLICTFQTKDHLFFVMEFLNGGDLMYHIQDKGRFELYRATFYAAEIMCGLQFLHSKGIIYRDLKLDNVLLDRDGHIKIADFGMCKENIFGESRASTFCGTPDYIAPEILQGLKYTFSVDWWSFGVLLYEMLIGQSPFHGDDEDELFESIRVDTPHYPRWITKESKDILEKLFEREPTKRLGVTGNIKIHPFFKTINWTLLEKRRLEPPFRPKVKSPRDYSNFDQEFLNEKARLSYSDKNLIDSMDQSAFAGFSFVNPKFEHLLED
UniProt Q06187, sequence (whole entry, looked up): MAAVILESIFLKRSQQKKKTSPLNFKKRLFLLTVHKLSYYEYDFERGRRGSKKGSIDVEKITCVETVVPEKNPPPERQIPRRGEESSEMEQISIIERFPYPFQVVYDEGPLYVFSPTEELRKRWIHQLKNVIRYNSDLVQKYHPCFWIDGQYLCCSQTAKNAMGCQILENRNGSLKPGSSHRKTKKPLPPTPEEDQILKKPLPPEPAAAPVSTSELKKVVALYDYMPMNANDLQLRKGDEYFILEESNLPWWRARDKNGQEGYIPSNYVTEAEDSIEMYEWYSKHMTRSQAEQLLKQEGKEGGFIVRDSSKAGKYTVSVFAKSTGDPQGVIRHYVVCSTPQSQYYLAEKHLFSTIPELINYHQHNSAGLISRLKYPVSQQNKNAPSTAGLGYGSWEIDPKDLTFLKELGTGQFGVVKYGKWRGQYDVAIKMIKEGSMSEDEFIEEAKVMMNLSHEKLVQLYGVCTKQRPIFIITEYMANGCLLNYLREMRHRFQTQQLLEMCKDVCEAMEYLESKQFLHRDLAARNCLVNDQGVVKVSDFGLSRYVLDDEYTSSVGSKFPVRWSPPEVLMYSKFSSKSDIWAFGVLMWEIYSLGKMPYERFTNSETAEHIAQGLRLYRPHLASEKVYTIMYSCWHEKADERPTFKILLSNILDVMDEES
UniProt Q07002, sequence (whole entry, looked up): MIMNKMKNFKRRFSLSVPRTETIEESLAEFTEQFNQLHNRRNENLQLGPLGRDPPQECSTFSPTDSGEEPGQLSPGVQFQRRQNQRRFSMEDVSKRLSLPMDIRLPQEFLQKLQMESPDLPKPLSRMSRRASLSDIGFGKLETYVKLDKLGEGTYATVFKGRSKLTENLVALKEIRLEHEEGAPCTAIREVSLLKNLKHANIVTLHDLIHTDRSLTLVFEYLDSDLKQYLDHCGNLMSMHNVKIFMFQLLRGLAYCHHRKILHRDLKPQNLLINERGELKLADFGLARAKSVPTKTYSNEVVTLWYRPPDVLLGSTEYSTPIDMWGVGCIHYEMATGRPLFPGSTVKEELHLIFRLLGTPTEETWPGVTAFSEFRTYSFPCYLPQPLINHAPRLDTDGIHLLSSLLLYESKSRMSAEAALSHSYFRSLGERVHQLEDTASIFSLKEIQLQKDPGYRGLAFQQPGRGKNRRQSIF
UniProt O94921, sequence (whole entry, looked up): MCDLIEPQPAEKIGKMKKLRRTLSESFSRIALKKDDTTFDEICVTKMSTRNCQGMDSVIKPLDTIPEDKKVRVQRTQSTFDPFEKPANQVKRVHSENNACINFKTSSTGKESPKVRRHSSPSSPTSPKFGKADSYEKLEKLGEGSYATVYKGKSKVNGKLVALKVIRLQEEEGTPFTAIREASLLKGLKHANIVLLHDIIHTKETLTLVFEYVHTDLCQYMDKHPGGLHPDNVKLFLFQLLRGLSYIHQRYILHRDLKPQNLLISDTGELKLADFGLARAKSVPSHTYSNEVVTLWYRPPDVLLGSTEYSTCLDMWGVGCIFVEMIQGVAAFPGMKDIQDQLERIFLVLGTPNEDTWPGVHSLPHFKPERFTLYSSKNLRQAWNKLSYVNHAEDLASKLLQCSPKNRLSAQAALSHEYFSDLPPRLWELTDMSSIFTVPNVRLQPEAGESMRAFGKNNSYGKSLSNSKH
UniProt Q9UPZ9, sequence (whole entry, looked up): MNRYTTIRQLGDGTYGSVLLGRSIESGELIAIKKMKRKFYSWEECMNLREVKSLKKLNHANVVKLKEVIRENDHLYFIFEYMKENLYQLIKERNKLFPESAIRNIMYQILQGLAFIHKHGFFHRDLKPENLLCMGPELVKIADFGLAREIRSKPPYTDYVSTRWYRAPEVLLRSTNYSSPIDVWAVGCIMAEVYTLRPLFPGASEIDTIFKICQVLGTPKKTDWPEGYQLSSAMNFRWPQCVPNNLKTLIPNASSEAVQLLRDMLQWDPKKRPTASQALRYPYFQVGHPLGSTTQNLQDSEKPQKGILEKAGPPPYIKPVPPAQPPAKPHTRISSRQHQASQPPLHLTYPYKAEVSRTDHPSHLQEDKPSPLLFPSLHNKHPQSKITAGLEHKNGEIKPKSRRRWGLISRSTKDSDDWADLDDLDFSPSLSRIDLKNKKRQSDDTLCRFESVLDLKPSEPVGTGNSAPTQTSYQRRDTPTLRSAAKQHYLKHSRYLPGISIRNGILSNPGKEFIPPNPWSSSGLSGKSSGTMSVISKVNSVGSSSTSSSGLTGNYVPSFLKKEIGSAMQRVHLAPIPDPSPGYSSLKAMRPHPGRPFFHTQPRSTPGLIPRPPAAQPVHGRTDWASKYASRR
UniProt P78362, sequence (whole entry, looked up): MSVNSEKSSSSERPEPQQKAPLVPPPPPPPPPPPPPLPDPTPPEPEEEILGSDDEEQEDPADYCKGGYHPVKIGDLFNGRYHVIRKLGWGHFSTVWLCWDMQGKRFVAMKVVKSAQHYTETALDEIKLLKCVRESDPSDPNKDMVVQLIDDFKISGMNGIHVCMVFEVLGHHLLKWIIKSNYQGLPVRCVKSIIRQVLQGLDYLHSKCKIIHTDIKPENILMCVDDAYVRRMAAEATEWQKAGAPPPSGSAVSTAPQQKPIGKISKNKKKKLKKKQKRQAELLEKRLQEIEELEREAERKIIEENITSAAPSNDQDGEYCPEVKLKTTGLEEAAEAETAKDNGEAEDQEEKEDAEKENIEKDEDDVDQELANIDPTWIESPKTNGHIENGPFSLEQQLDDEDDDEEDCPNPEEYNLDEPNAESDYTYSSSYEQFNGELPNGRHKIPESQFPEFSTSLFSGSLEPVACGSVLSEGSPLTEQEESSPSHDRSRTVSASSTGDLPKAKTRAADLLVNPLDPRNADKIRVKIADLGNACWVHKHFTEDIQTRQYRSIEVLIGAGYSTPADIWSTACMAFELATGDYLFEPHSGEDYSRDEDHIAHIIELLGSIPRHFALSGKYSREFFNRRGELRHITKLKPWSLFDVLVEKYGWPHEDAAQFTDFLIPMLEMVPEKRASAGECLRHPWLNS
UniProt P36507, sequence (whole entry, looked up): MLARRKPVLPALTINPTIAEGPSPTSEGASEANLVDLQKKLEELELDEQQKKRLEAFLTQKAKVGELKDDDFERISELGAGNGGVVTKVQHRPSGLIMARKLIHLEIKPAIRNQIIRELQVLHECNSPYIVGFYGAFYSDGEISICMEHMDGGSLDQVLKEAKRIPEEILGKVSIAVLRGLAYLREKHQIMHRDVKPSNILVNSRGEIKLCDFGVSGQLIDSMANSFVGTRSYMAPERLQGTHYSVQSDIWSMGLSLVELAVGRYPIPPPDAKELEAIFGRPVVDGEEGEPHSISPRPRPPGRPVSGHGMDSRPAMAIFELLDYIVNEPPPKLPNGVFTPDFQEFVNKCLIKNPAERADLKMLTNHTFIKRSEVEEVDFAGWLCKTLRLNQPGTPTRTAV

Study 1
Target: Dual serine/threonine and tyrosine protein kinase (DSTYK, Homo sapiens, UniProt Q6XUX3)
UniProt Q6XUX3, sequence (whole entry, looked up): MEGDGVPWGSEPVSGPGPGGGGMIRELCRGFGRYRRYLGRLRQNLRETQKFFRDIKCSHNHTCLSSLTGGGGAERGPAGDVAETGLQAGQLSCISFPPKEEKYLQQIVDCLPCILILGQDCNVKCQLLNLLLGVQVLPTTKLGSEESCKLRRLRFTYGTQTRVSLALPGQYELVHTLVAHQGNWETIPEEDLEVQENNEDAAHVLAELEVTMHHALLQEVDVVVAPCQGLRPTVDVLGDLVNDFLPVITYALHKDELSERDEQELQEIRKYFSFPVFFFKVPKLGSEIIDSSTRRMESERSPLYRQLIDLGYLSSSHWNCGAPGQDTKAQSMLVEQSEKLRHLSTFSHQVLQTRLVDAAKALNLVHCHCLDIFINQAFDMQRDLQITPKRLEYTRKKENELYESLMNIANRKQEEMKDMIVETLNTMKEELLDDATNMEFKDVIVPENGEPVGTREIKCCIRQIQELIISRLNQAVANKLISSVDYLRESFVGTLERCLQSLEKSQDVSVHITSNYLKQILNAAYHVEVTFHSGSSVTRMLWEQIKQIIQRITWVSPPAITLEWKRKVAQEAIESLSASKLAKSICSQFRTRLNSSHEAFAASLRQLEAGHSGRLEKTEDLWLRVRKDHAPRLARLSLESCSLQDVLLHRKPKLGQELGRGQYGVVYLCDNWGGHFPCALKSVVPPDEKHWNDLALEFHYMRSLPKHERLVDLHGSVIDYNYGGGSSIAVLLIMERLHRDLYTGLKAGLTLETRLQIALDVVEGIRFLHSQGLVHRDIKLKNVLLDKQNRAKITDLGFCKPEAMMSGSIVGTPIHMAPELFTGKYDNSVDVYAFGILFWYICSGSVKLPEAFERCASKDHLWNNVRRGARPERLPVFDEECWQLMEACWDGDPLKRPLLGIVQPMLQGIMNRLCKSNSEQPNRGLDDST
Observed: enzyme activity
Action: inhibitor
Tested at: 0.5 µM
Baseline: control
Structure (SMILES)	remaining activity
O=C(c1ccccc1)c1ccc(N2CCOCC2)cc1O	86.2%
NC(=O)c1cccc(-c2cc(Nc3ccc(OC(F)(F)F)cc3)ncn2)c1	95.8%
NC(=O)c1ccc(-c2nc(-c3ccc4c(c3)OCCO4)c(-c3ccccn3)[nH]2)cc1	93.1%
CCCCc1c(-c2ccc(O)cc2)[nH]c2nccnc12	88.9%
O=C1NC(=O)/C(=C/c2ccc3c(c2)OC(F)(F)O3)S1	89.3%
N#C/C(=C(/N)SC1C=CC=CC1)c1cccc(C(O)c2ccncc2)c1 (centres unmarked)	109%
O=c1c(-c2ccc(F)cc2)c(-c2ccncc2)[nH]n1-c1ccc(Cl)cc1	92.9%
N#CC(c1ccnc(NCCc2cccnc2)n1)c1nc2ccccc2s1 (centres unmarked)	93.4%
CCN(CC)CCCCN1c2ccccc2Oc2ccc(Cl)cc21	106%
C[C@@H](N)[C@H]1CC[C@H](C(=O)Nc2ccncc2)CC1	101%
Clc1ccc(Nc2nnc(Cc3ccncc3)c3ccccc23)cc1	96.5%
CC(C)(C)c1nc2c3cc[nH]c(=O)c3c3cc(F)ccc3c2[nH]1	62%
FC(F)(F)c1ccc(/C=C/c2nc(COc3ccc(CCCCn4ccnn4)cc3)co2)cc1	88.8%
O=Nc1c(-c2c(O)[nH]c3ccccc23)[nH]c2ccccc12	108%
COc1cc2c(Nc3ccc(Br)cc3F)ncnc2cc1OCC1CCN(C)CC1	96%
CNc1cc2c(Nc3cccc(Br)c3)ncnc2cn1	94.1%
O=C1c2ccccc2-c2nc3nnnn3nc21	81.5%
CC(C)N(CCC(=O)c1ccc2ccccc2c1)Cc1ccccc1	84.9%
O=C(O)/C=C/c1cc(Br)c(Br)c(Br)c1Br	98.2%
c1cc(-c2cnn3cc(-c4ccc(OCCN5CCCCC5)cc4)cnc23)ccn1	98.3%
COc1cc2c(N3CCN(C(=O)Nc4ccc(OC(C)C)cc4)CC3)ncnc2cc1OCCCN1CCCCC1	92.7%
Nc1nc(Nc2ccc(S(N)(=O)=O)cc2)nn1C(=S)Nc1c(F)cccc1F	17.8%
CC(C)n1cnc2c(Nc3cccc(Cl)c3)nc(NCCO)nc21	97%

Study 2
Structure (SMILES): COc1cc(C(=O)N2CCC(N3CCN(C)CC3)CC2)ccc1Nc1ncc2c(n1)N(C)c1ccccc1C(=O)N2C
Method: KINOMEscan
Tested at: 10 µM
Baseline: DMSO control
Reading: lower = stronger binding
target	binding
AXL	100%
PIM3	88%
MARK4	78%
CSNK1D	81%
SYK	100%
CAMK1D	69%
FES	84%
PDGFRB	100%
MELK	100%
MST4	95%
SRMS	77%
NLK	50%
ASK1	100%
AURKC	50%

Study 3
SMILES: O=C(Nc1ccccc1)Nc1cccc(Oc2ccc3nccn3n2)c1
Tested at: 1 µM
target	test	conditions	how to read	remaining binding
PKN1 (Homo sapiens, UniProt Q16512)	competitive binding panel	–	baseline: vehicle	100%
EIF2AK1 (Homo sapiens, UniProt Q9BQI3)	competitive binding panel	–	baseline: vehicle	100%
STK3 (Homo sapiens, UniProt Q13188)	competitive binding panel, measured: MST2	–	baseline: vehicle	100%
CDK18 (Homo sapiens, UniProt Q07002)	competitive binding panel, measured: PCTK3	–	baseline: vehicle	100%
CDKL2 (Homo sapiens, UniProt Q92772)	competitive binding panel	–	baseline: vehicle	96%
CDK14 (Homo sapiens, UniProt O94921)	competitive binding panel, measured: PFTK1	–	baseline: vehicle	100%
PRKD1 (Homo sapiens, UniProt Q15139)	competitive binding panel	–	baseline: vehicle	100%
MAST1 (Homo sapiens, UniProt Q9Y2H9)	competitive binding panel	–	baseline: vehicle	100%
CDC42BPG (Homo sapiens, UniProt Q6DT37)	competitive binding panel, measured: DMPK2	–	baseline: vehicle	100%
TAOK3 (Homo sapiens, UniProt Q9H2K8)	competitive binding panel	–	baseline: vehicle	100%
ACVRL1 (Homo sapiens, UniProt P37023)	competitive binding panel	–	baseline: vehicle	100%
TTK (Homo sapiens, UniProt P33981)	competitive binding panel	–	baseline: vehicle	100%
BTK (Homo sapiens, UniProt Q06187)	competitive binding panel	–	baseline: vehicle	100%
PRKCD (Homo sapiens, UniProt Q05655)	competitive binding panel	–	baseline: vehicle	84%
MAPK8 (Homo sapiens, UniProt P45983)	competitive binding	JNK1	–	100%
MAP2K2 (Homo sapiens, UniProt P36507)	competitive binding panel, measured: MEK2	–	baseline: vehicle	100%

Study 4
Compound: C[C@H](c1cccc(C#N)c1)n1cc(Cl)cc(C(N)=O)c1=N
Observed: cell-free assay
Method: competition with immobilised ligand
Tested at: 1 µM
target	remaining binding [%]
TAOK2 (Homo sapiens, UniProt Q9UL54)	82
CILK1 (Homo sapiens, UniProt Q9UPZ9)	98
RIOK1 (Homo sapiens, UniProt Q9BRS2)	100
MET (Homo sapiens, UniProt P08581, Y1235D)	100
SRPK2 (Homo sapiens, UniProt P78362)	100
HCK (Homo sapiens, UniProt P08631)	98
Tyrosine-protein kinase ABL1, phosphorylated (ABL1, Homo sapiens, UniProt P00519, Y253F)	88
SRPK1 (Homo sapiens, UniProt Q96SB4)	96
MKNK1 (Homo sapiens, UniProt Q9BUB5)	63
EGFR (Homo sapiens, UniProt P00533, L858R/T790M)	89
ZAP70 (Homo sapiens, UniProt P43403)	92
MET (Homo sapiens, UniProt P08581, M1250T)	100
SIK2 (Homo sapiens, UniProt Q9H0K1)	100
EPHB1 (Homo sapiens, UniProt P54762)	100
NEK5 (Homo sapiens, UniProt Q6P3R8)	93
FLT3 (Homo sapiens, UniProt P36888, ITD)	100
TEC (Homo sapiens, UniProt P42680)	100
CASK (Homo sapiens, UniProt O14936)	82

A few entries again (study 1):
Structure (SMILES)	remaining activity
C[C@@H](N)[C@H]1CC[C@H](C(=O)Nc2ccncc2)CC1	101%
Clc1ccc(Nc2nnc(Cc3ccncc3)c3ccccc23)cc1	96.5%
CC(C)(C)c1nc2c3cc[nH]c(=O)c3c3cc(F)ccc3c2[nH]1	62%
FC(F)(F)c1ccc(/C=C/c2nc(COc3ccc(CCCCn4ccnn4)cc3)co2)cc1	88.8%
O=Nc1c(-c2c(O)[nH]c3ccccc23)[nH]c2ccccc12	108%
COc1cc2c(Nc3ccc(Br)cc3F)ncnc2cc1OCC1CCN(C)CC1	96%
CNc1cc2c(Nc3cccc(Br)c3)ncnc2cn1	94.1%
O=C1c2ccccc2-c2nc3nnnn3nc21	81.5%
CC(C)N(CCC(=O)c1ccc2ccccc2c1)Cc1ccccc1	84.9%
O=C(O)/C=C/c1cc(Br)c(Br)c(Br)c1Br	98.2%
c1cc(-c2cnn3cc(-c4ccc(OCCN5CCCCC5)cc4)cnc23)ccn1	98.3%
COc1cc2c(N3CCN(C(=O)Nc4ccc(OC(C)C)cc4)CC3)ncnc2cc1OCCCN1CCCCC1	92.7%
